Published values collected from several papers.
± gives the spread as reported. Values after ≈ are worked out from the molar mass of the structure shown.

O=C(O)[C@@H]1C[C@@H](O)CN1C(=O)[C@@H]1CCCN1
log beta (potentiometric titration; 40 °C, with: Fe(III)): 8.15

Cn1c(=O)oc2ccc(-c3ccc(CC(C#N)NC(=O)C4CNCCCO4)c(F)c3)cc21 (stereo not drawn)
ALT increased incidence (human; oral, 20 mg once daily, TEAE, multiple ascending dose): 11.1%

Cc1cc(O)cc(O)c1C(=O)c1c2c3c(c(O)cc(C)c3oc1=O)C(=O)c1c(O)cc(O)cc1-2
PCE/NCE ratio (mouse, bone marrow; intraperitoneal, 100 mg/kg, 30 h): 1.01 ± 0.05

O=c1[nH]c(=O)n(C2OC(CO)C(O)C2O)cc1-n1nnc2c1CCC1C(CO)C1CC2 (mixture of isomers)
brightness (methanol): 0.12 M⁻¹ cm⁻¹

CCCC[C@H](NC(=O)CNC(=O)CNC(=O)CN1CCN(CC(=O)O)CCN(CC(=O)O)CCN(CC(=O)O)CC1)C(=O)N[C@H]1CC(=O)NCCCC[C@@H](C(N)=O)NC(=O)[C@H](Cc2c[nH]c3ccccc23)NC(=O)[C@H](CCCNC(=N)N)NC(=O)[C@@H](Cc2ccccc2)NC(=O)[C@H](Cc2c[nH]cn2)NC1=O [copper-64 labelled]
uptake ratio (female C57 mouse, B16/F1 melanoma; intravenous, 0.037 MBq, 4 h; baseline: tumour over heart): 3.62

N#Cc1cnc2cc(OCC3CCNCC3)c(F)cc2c1Nc1cc(F)c(OCc2cccc(Cl)n2)cc1Cl
half-life (male beagle dog, plasma; oral, 5 mg/kg): 6.7 h

CC(=O)N[C@@H](CCCCN)C(=O)N[C@@H](CCCCN)C(=O)N[C@@H](CCCCN)C(=O)N[C@@H](CCCCN)C(=O)N[C@@H](CCCCN)C(=O)N[C@@H](CCCCN)C(=O)N[C@@H](CCCCN)C(=O)N[C@@H](CCC(N)=O)C(=O)N[C@@H](Cc1c[nH]c2ccccc12)C(=O)N[C@@H](CCC(N)=O)C(=O)N[C@@H](Cc1c[nH]c2ccccc12)C(=O)N[C@@H](CCC(N)=O)C(=O)N[C@@H](Cc1c[nH]c2ccccc12)C(=O)N[C@@H](CCC(N)=O)C(=O)N[C@@H](Cc1c[nH]c2ccccc12)C(=O)N[C@@H](CCC(N)=O)C(=O)N[C@@H](Cc1c[nH]c2ccccc12)C(=O)N[C@@H](CCC(N)=O)C(=O)N[C@@H](Cc1c[nH]c2ccccc12)C(N)=O
number of subunits per assembly (sedimentation velocity AUC; Tris buffer 20 mM; 20 µM, 24 h, pH 7.4, 4 °C): 14

O=C(O)C1CN(Cc2ccc(-c3noc(-c4ccc(OCC[18F])c(C(F)(F)F)c4)n3)cc2)C1
tracer uptake (rat, brain; intravenous, 2 h): 0.015 %ID/g

CCCC(CCC(=O)O)NC(=O)c1ccc2c(c1)OCO2 (stereo not drawn)
Cmax ratio (female Sprague-Dawley rats, plasma; oral, 50 mg/kg of parent drug; baseline: 50 over 20 mg/kg dose): 1.28

Cc1ccc(OCC(=O)O)cc1
Tmax (Sprague-Dawley rat Crl:CD(SD), female, plasma; oral, 30 mg/kg/day of parent drug, day 90, 90-day repeated dosing): 3 h

CN(C)c1ccc(-c2nc3ccc(OCCCCCN4CCN5CCN(CC4)CC(=O)[O][Al]([18F])[O]C(=O)C5)cc3s2)cc1
stomach uptake (ICR mouse; intravenous, dose not given, 10 min): 1.05 ± 0.26 % injected dose/organ

C#Cc1cccc(N(C(=O)CCl)C(C(=O)NC2CCCCC2)c2ccccn2)c1 (racemic)
conversion to pyridinium salt (HPLC-MS; DPBS; 3 h, 37 °C): > 50%

CC(C)(C)ONc1nc(Nc2ccnc(C(F)(F)F)c2)nc(-c2cccc(C(F)(F)F)n2)n1
tissue/plasma ratio (female Balb/cA nude mice xenograft; oral, 54.14 mg/kg, AUC(0-24 h); baseline: tumour over plasma): 4.8

Oc1cccc(-c2cccc(O)n2)n1.[Cl-].[Cl-].[Ru+2].c1cnc2c(c1)c1c(c3cccnc32)OCCO1.c1cnc2c(c1)c1c(c3cccnc32)OCCO1
logD (shake flask; octanol/phosphate buffer; pH 7.00): 1.62

NCCCC(=O)OCC(=O)c1cc(F)c(O)c(F)c1F.O=C(O)C(F)(F)F
quantum yield (photolysis, measured: disappearance of compound; aqueous HEPES buffer with LiClO4; pH 8.2): 0.02

CCNC(=O)[C@@]1(c2ccccc2)C[C@H]1CN
urinary excretion (cynomolgus monkey, male; oral, 30 mg/kg, 0-24 h; baseline: dose): 12.4%

COc1cc(NC(C)=O)c2c(c1O)-c1c(OC)c(OC)cc3c1C(C2)N(C)CC3 (stereo not drawn)
remaining compound (rat, plasma; 50 µg/mL, 4 h, room temperature, short-term storage): 102 ± 4.1%

CC(C)[C@H](NC(=O)CNC(=O)[C@H](CCC(N)=O)NC(=O)[C@H](C)N)C(=O)O
AUC(0-last) (human, plasma; intravenous infusion, 10 mg/kg single, 15 min infusion, geometric mean): 175 ng·h/mL

NC[C@@H](C(=O)Nc1ccc(-c2cn[nH]c2)cc1)c1ccccc1
conjunctival redness score (OECD 405; New Zealand White rabbit; topical, 0.1 %, 56 h, day 3; direction not given): 0

O=c1c2ccccc2[se]n1CCCCCCn1[se]c2ccccc2c1=O
solubility (10% Soluplus in water; 24 h, 25 °C, 100 mg/mL): 515 ± 8 µg/mL (≈ 1080 µM)

CCNC(=O)OCc1c(COC(=O)NCC)c(-c2ccc(OC)cc2)n2c1Cc1ccccc1-2
mean corpuscular haemoglobin concentration (BALB/c nude mice, blood; dose not given, day 10): 29.3 ± 0.4 g/dL

CC(=O)N[C@H](CCNC(=O)c1cc(NC(=O)c2cc(NC(=O)c3cc(NC(=O)c4nccn4C)cn3C)cn2C)cn1C)C(=O)Nc1cn(C)c(C(=O)Nc2cc(C(=O)Nc3cc(C(=O)Nc4cc(C(=O)NCCCN(C)CCCN[14C](=O)c5cccc([14C](=O)O)c5)n(C)c4)n(C)c3)n(C)c2)n1
kidney concentration (BALB/c male mouse; intraperitoneal, 15 nmol per animal, 24 h): 0.23 mg/kg

NCCCC(=O)OCC(=O)c1ccc(O)cc1F.O=C(O)C(F)(F)F
quantum yield (photolysis, measured: disappearance of compound; unbuffered water): 0.28

CC(C)[C@H](NC(=O)[C@@H]1CCCN1C(=O)[C@H](CCCNC(=N)N)NC(=O)[C@H](CS)NC(=O)[C@H](Cc1c[nH]c2ccccc12)NC(=O)[C@H](CCCNC(=N)N)NC(=O)[C@@H](Cc1ccccc1)NC(=O)[C@H](Cc1c[nH]cn1)NC(=O)[C@H](CCC(=O)O)NC(=O)[C@H](CS)NC(=O)[C@H](CS)NC(=O)COCCOCCNC(=O)[C@@H]1CC(=O)N[C@@H](CCCNC(=N)N)C(=O)NCC(=O)N[C@@H](CC(=O)O)C(=O)N[C@H](Cc2ccc(O)cc2)C(=O)N1)C(N)=O [technetium-99m labelled]
tumour-to-tissue ratio (nude mouse, M21 melanoma xenograft, tumour over lung; intravenous, 0.037 MBq, 2 h; baseline: tumour over lung): 2.16 ± 1.43

CN(C)c1cccc2c(S(=O)(=O)NCCCCCC(=O)NO)cccc12
emission wavelength (fluorescence): 500 nm

Cc1[nH]c(/C=C2\C(=O)Nc3ccc(F)cc32)c(C)c1NC(=O)CCN1CCN(C)CC1
accuracy deviation (dog plasma; 1.00 ng/mL nominal, three freeze-thaw cycles at -20 °C): -4.57%

CC(C)C[C@@H](NC(=O)[C@H](NC(=O)[C@H]1CCCN1)[C@H](C)O)C(=O)N[C@H](Cc1c[nH]cn1)C(=O)N[C@@H](C(=O)N[C@H](Cc1c[nH]cn1)C(=O)N[C@H](CC(N)=O)C(=O)N[C@H](CCCNC(=N)N)C(=O)N[C@H](CCCNC(=N)N)C(=O)N[C@H](CCCNC(=N)N)C(=O)N[C@H](CCCNC(=N)N)C(=O)N[C@H](CCCNC(=N)N)C(N)=O)[C@H](C)O
AUC(0-tlast) (Beagle dog, CSF; oral, 20 mg/kg): 180 ± 77 ng·h/mL

Cc1ccc(/N=N/c2c(O)ccc3ccccc23)c(C)c1
stability deviation (rat whole blood extract; 0.2 µg/L, 30 days, -20 °C, long-term storage): -2%

CC(C)CCN(Cc1ccc(F)cc1)c1nc(C#N)nc(N2CCOCC2)n1
plasma concentration (female CD-1 mice; intraperitoneal, 10 mg/kg, 2 h): 17.3 ng/mL

CC[C@H](C)[C@H](NC(=O)[C@H](CC(C)C)NC(=O)[C@H](Cc1c[nH]c2ccccc12)NC(=O)[C@H](C)NC(=O)[C@@H](NC(=O)[C@H](Cc1ccccc1)NC(=O)[C@H](CC(=O)O)NC(=O)[C@H](CCCNC(=N)N)NC(=O)[C@H](C)NC(=O)[C@H](C)NC(=O)[C@H](CC(C)C)NC(=O)[C@H](C)NC(=O)[C@H](CC(=O)O)NC(=O)[C@H](CC(C)C)NC(=O)[C@@H](NC(=O)[C@@H](NC(=O)[C@H](C)NC(=O)[C@H](CC(C)C)NC(=O)[C@H](CCC(=O)O)NC(=O)[C@H](CO)NC(=O)[C@H](CO)NC(=O)[C@H](Cc1ccccc1)NC(=O)[C@@H](NC(=O)CNC(=O)[C@H](CCC(=O)O)NC(=O)CNC(=O)[C@@H](N)Cc1cnc[nH]1)[C@@H](C)O)[C@@H](C)O)[C@@H](C)CC)[C@@H](C)CC)C(=O)N[C@@H](C)C(=O)N[C@H](C(=O)N[C@@H](CCCCN)C(=O)N[C@H](C(=O)N[C@H](C(=O)N[C@@H](CC(=O)O)C(=O)N[C@@H](CCCCN)C(=O)N[C@@H](CCCCN)C(=O)N[C@@H](CCCCN)C(=O)N[C@@H](CCCCN)C(=O)N[C@@H](CCCCN)C(=O)N[C@@H](CCCCN)C(N)=O)[C@@H](C)O)[C@@H](C)CC)[C@@H](C)O
terminal half-life (healthy humans, plasma; subcutaneous, 5 mg once weekly, 6 doses, day 36, mean): 228 h

NCCCC(=O)OCC(=O)c1ccc(O)c(F)c1F.O=C(O)C(F)(F)F
quantum yield (photolysis, measured: rearranged acid appearance; unbuffered water): 0.22

O=C1/C(=C/c2ccc(B(O)O)cc2)CC/C1=C\c1ccc(B(O)O)cc1
particle size (water): 2880 nm

COc1ccc(/C=C/c2ccc(-c3ccc(C)cn3)nc2)cc1
fluorescence lifetime (TCSPC; water, HEPES 100 mM; pH 7.4): 1.11 ns
